Experimental data gathered from unrelated publications.
Compare with care: the assays were run in different laboratories. Numbers after ± are the reported error.
Chymotrypsin-C S216A: Chymotrypsin-C (Homo sapiens, UniProt Q99895, S216A)
14-3-3 protein epsilon: 14-3-3 protein epsilon (Homo sapiens, UniProt P62258)
Magi2: Membrane-associated guanylate kinase, WW and PDZ domain-containing protein 2 (Magi2, Mus musculus, UniProt Q9WVQ1)

CSCC[C@@H]1NC(=O)[C@H](C)NC(=O)[C@H](CO)NC(=O)[C@H](CCCCN)NC(=O)CNC(=O)[C@H](CC(=O)O)NC(=O)[C@H](CO)NC(=O)CNC(=O)[C@@H]2CSSC[C@H](NC(=O)[C@@H](NC(=O)[C@@H](NC(=O)[C@H](CCC(=O)O)NC(=O)[C@H](CO)NC(=O)CN)C(C)C)[C@@H](C)O)C(=O)N[C@@H](CCC(=O)O)C(=O)N3CCC[C@H]3C(=O)NCC(=O)N[C@@H]([C@@H](C)O)C(=O)N[C@@H]([C@@H](C)O)C(=O)N[C@@H](Cc3ccccc3)C(=O)N[C@@H](CCCCN)C(=O)N[C@@H](CC(=O)O)C(=O)N[C@@H](CCCCN)C(=O)N[C@H]3CSSC[C@@H](C(=O)N[C@@H](Cc4c[nH]c5ccccc45)C(=O)N[C@@H](CCC(N)=O)C(=O)O)NC(=O)[C@H](CC(C)C)NC(=O)[C@H](CCSC)NC(=O)[C@H](CC(C)C)NC(=O)[C@H](CO)NC(=O)[C@H](CSSC[C@H](NC(=O)[C@H]([C@@H](C)O)NC(=O)[C@H](CC(N)=O)NC3=O)C(=O)N[C@@H](CCCNC(=N)N)C(=O)N2)NC1=O  Kd (Chymotrypsin-C S216A; competitive fluorescence polarization; 24 h, pH 8.0, added: FITC-labelled tracer): 0.24 ± 0.03 nM
CC(=O)N[C@@H](CCCNC(=N)N)C(=O)N[C@H](C(=O)N[C@@H](CCCCN)C(=O)N[C@@H](CO)C(=O)N[C@@H](CCCNC(=N)N)C(=O)N[C@H](C(=O)N[C@@H](Cc1c[nH]c2ccccc12)C(=O)N[C@@H](C)C(=O)N[C@H](C(N)=O)C(C)C)[C@@H](C)OP(=O)(O)O)[C@@H](C)O  Kd (14-3-3 protein epsilon; binding, SPR): 230 nM
O=C(N[C@@H]1c2ccccc2C[C@H]1N1CCCC1)c1ccc(-c2ccnc3[nH]ccc23)nc1  Kd (Serine/threonine-protein kinase N1 (PKN1, Homo sapiens, UniProt Q16512); binding, competition with immobilised ligand): 520 nM
CC(=O)N[C@@H](CCCNC(=N)N)C(=O)N[C@H](C(=O)N[C@@H](CCCCN)C(=O)N[C@@H](CO)C(=O)N[C@@H](CCCNC(=N)N)C(=O)N[C@H](C(=O)N[C@@H](Cc1c[nH]c2ccccc12)C(=O)N[C@@H](C)C(=O)N1Cc2ccccc2C[C@H]1C(N)=O)[C@@H](C)OP(=O)(O)O)[C@@H](C)O  Kd (14-3-3 protein epsilon; binding, SPR): 33.7 nM
CC(=O)NCCCC[C@H](NC(=O)[C@H](CCCNC(=N)N)NC(=O)[C@H](C)NC(=O)[C@H](C)NC(=O)[C@H](CCCCN)NC(=O)[C@@H](N)[C@@H](C)O)C(=O)N[C@@H](CO)C(=O)N[C@@H](C)C(=O)N1CCC[C@H]1C(=O)N[C@@H](C)C(=O)N[C@H](C(=O)O)[C@@H](C)O  Kd (YEATS domain-containing protein 4, YEATS domain (Homo sapiens, UniProt O95619); isothermal titration calorimetry; pH 7.6, 25 °C, added: histone peptide): 68000 ± 3500 nM
CC[C@H](C)[C@H](NC(=O)[C@H](Cc1c[nH]cn1)NC(=O)[C@H](CC(N)=O)NC(=O)[C@H](CC(C)C)NC(=O)[C@@H](NC(=O)[C@@H](NC(=O)[C@@H](N)CCCCN)[C@@H](C)O)C(C)C)C(=O)N[C@H](C(=O)N[C@@H](CCCCN)C(=O)N[C@@H](CCCNC(=N)N)C(=O)NCC(=O)N1CCC[C@H]1C(=O)N[C@@H](Cc1ccccc1)C(=O)N[C@@H](CC(C)C)C(=O)O)[C@@H](C)O  Kd (TIM13/TIM8 (Saccharomyces cerevisiae, UniProt P53299+P57744); binding, SPR; pH 7.4, 25 °C, with 63 µM compound, added: peptide 91-103): 350000 nM
O=C1NC2(CC2)COc2ncc(F)cc2[C@H]2COCCN2c2ccn3ncc1c3n2  glucose (Sprague-Dawley rat, female, serum; oral, 2.5 mg/kg/day, 4 weeks daily, end of treatment): 8.29 ± 0.75 mmol/L
CSCC[C@@H]1NC(=O)[C@H](Cc2ccccc2)NC(=O)[C@H]([C@@H](C)O)NC(=O)[C@@H]2CSSC[C@@H]3NC(=O)[C@H]([C@@H](C)O)NC(=O)[C@H](CC(N)=O)NC(=O)[C@H](CSSC[C@@H](C(=O)N[C@@H](CC(=O)O)C(=O)N[C@@H](CCC(N)=O)C(=O)O)NC(=O)[C@H](CC(C)C)NC1=O)NC(=O)[C@H](CCCCN)NC(=O)[C@H](CC(=O)O)NC(=O)[C@H](CCCCN)NC(=O)[C@H](Cc1ccccc1)NC(=O)[C@H]([C@@H](C)O)NC(=O)[C@H]([C@@H](C)O)NC(=O)CNC(=O)[C@@H]1CCCN1C(=O)[C@H](CCC(=O)O)NC(=O)[C@@H](NC(=O)[C@@H](NC(=O)[C@@H](NC(=O)[C@H](CCC(=O)O)NC(=O)[C@H](CO)NC(=O)CN)C(C)C)[C@@H](C)O)CSSC[C@H](NC(=O)[C@H](CCCNC(=N)N)NC3=O)C(=O)NCC(=O)N[C@@H](CO)C(=O)N[C@@H](CC(=O)O)C(=O)NCC(=O)N[C@@H](CCCCN)C(=O)N[C@@H](CO)C(=O)N[C@@H](C)C(=O)N[C@@H](Cc1ccc(O)cc1)C(=O)N2  Kd (Chymotrypsin-C S216A; competitive fluorescence polarization; 24 h, pH 8.0, added: FITC-labelled tracer): 6.38 ± 1.02 nM
CSCC[C@H](NC(=O)[C@H](C)NC(=O)[C@H](CCCCN)NC(=O)[C@H](CC(C)C)NC(=O)[C@H](Cc1ccc(O)cc1)NC(=O)[C@H](COP(=O)(O)O)NC(=O)[C@H](CCC(=O)O)NC(=O)[C@H](CCCNC(=N)N)NC(=O)[C@H](CCCNC(=N)N)NC(=O)[C@H](C)NC(=O)[C@H](C)N)C(=O)N[C@@H](CCC(N)=O)C(=O)N1CCC[C@H]1C(=O)N[C@@H](CO)C(=O)N[C@@H](CC(C)C)C(=O)O  Kd (Magi2; ITC; pH 8.0, 25 °C, added: tandem peptide): 40 nM
CC(C)C[C@H](NC(=O)[C@H](CCP(=O)(O)O)NC(=O)[C@@H](NC(=O)[C@@H](NC(=O)[C@H](CCCNC(=N)N)NC(=O)[C@H](CC(C)C)NC(=O)[C@H](CO)NC(=S)Nc1ccc2c(c1)C(=O)OC21c2ccc(O)cc2Oc2cc(O)ccc21)[C@@H](C)O)C(C)C)C(=O)NCC(=O)N[C@@H](C)C(=O)NCC(=O)N[C@@H](C)C(=O)N[C@@H](Cc1c[nH]c2ccccc12)C(=O)N[C@@H](CC(C)C)C(=O)N[C@H](C(=O)N1CCC[C@H]1C(=O)N[C@@H](CCCNC(=N)N)C(=O)O)C(C)C  Kd (14-3-3 protein eta (Homo sapiens, UniProt Q04917); binding, fluorescence anisotropy; pH 7.5, FITC-labelled phosphopeptide titration): 19000 nM
CC(C)C[C@H](NC(=O)[C@H](CO)NC(=O)[C@@H]1CCCN1C(=O)[C@H](CCC(N)=O)NC(=O)[C@@H](NC(=O)[C@H](C)NC(=O)[C@H](CCCCN)NC(=O)[C@H](CC(C)C)NC(=O)[C@H](Cc1ccc(O)cc1)NC(=O)[C@H](COP(=O)(O)O)NC(=O)[C@H](Cc1ccccc1)NC(=O)[C@H](CCCNC(=N)N)NC(=O)[C@H](CCCNC(=N)N)NC(=O)[C@H](C)NC(=O)[C@H](C)N)[C@@H](C)O)C(=O)O  Kd (Magi2; ITC; pH 8.0, 25 °C, added: tandem peptide): 90 ± 10 nM
CC(C)C[C@@H]1NC(=O)[C@H](CC(C)C)NC(=O)[C@H](CC(C)C)NC(=O)[C@H]([C@@H](C)O)NC(=O)[C@@H]2CSSC[C@@H]3NC(=O)[C@H]([C@@H](C)O)NC(=O)[C@H](CC(N)=O)NC(=O)[C@H](CSSC[C@@H](C(=O)N[C@@H](CC(=O)O)C(=O)N[C@@H](CCC(N)=O)C(=O)O)NC1=O)NC(=O)[C@H](CCCCN)NC(=O)[C@H](CC(=O)O)NC(=O)[C@H](CCCCN)NC(=O)[C@H](Cc1ccccc1)NC(=O)[C@H]([C@@H](C)O)NC(=O)[C@H]([C@@H](C)O)NC(=O)CNC(=O)[C@@H]1CCCN1C(=O)[C@H](CCC(=O)O)NC(=O)[C@@H](NC(=O)[C@@H](NC(=O)[C@@H](NC(=O)[C@H](CCC(=O)O)NC(=O)[C@H](CO)NC(=O)CN)C(C)C)[C@@H](C)O)CSSC[C@H](NC(=O)[C@H](CCCNC(=N)N)NC3=O)C(=O)NCC(=O)N[C@@H](CO)C(=O)N[C@@H](CC(=O)O)C(=O)NCC(=O)N[C@@H](CCCCN)C(=O)N[C@@H](CO)C(=O)N[C@@H](C)C(=O)N[C@@H](Cc1c[nH]c3ccccc13)C(=O)N2  Kd (Chymotrypsin-C S216A; competitive fluorescence polarization; 24 h, pH 8.0, added: FITC-labelled tracer): 3.62 ± 0.41 nM
COc1ccc2cc1Oc1cc3c(cc1OC)CCN(C)C3Cc1ccc(cc1)Oc1c(O)c(OC)cc3c1C(C2)N(C)CC3 (stereo not drawn)  Kd (Glideosome-associated protein 50 (GAP50, Plasmodium falciparum, UniProt Q8I2X3); binding, surface plasmon resonance; 1:1 binding model): 25300 nM
C=C(C)C1CCC2(C(=O)NCCCCCCCC(=O)NCC(=O)O)CCC3(C)C(CCC4C5(C)CCC(O)C(C)(C)C5CCC43C)C12 (stereo not drawn)  Kd (Envelope glycoprotein gp160, HR2 peptide (Human immunodeficiency virus type 1 group M subtype B, UniProt P03377); binding): 6700 nM
CC(=O)N[C@@H](CO)C(=O)N[C@@H](Cc1ccccc1)C(=O)N[C@@H](CCC(=O)O)C(=O)N[C@@H](Cc1ccccc1Cl)C(=O)N1CCC[C@]12C=C[C@@H]1CC[C@@H](C(=O)N3CC[C@@H]4C=C[C@H]5CC[C@@H](C(=O)N[C@H](C(=O)N[C@@H](CCC(=O)O)C(=O)N[C@@H](CC(=O)O)C(=O)N[C@@H](CCC(=O)O)C(=O)N[C@@H](CC(C)C)C(N)=O)[C@@H](C)O)N5C(=O)[C@H]43)N1C2=O  Kd (Ena/VASP-like protein, EVH1 domain (EVL, Homo sapiens, UniProt Q9UI08); fluorescence titration): 190 nM

Some of these lines once more:
COc1ccc2cc1Oc1cc3c(cc1OC)CCN(C)C3Cc1ccc(cc1)Oc1c(O)c(OC)cc3c1C(C2)N(C)CC3 (stereo not drawn)  Kd (Glideosome-associated protein 50 (GAP50, Plasmodium falciparum, UniProt Q8I2X3); binding, surface plasmon resonance; 1:1 binding model): 25300 nM
C=C(C)C1CCC2(C(=O)NCCCCCCCC(=O)NCC(=O)O)CCC3(C)C(CCC4C5(C)CCC(O)C(C)(C)C5CCC43C)C12 (stereo not drawn)  Kd (Envelope glycoprotein gp160, HR2 peptide (Human immunodeficiency virus type 1 group M subtype B, UniProt P03377); binding): 6700 nM
